Measurements gathered from unrelated publications.
A part holds a random share of what one study measured. Positions count from the first letter of the parent shown.

Sample 1 — method: RNA Bind-n-Seq; molecule type: RNA; matrix: in vitro; tested at: 100 nM; reference: input RNA pool; reading: higher = stronger binding; measurement: bound/input enrichment
Target: RING finger protein unkempt homolog, zinc fingers 1-6, SBP tag (UNK, Homo sapiens, UniProt Q9C0B0, residues 30-357)
Chain of UniProt Q9C0B0 (30-357, looked up): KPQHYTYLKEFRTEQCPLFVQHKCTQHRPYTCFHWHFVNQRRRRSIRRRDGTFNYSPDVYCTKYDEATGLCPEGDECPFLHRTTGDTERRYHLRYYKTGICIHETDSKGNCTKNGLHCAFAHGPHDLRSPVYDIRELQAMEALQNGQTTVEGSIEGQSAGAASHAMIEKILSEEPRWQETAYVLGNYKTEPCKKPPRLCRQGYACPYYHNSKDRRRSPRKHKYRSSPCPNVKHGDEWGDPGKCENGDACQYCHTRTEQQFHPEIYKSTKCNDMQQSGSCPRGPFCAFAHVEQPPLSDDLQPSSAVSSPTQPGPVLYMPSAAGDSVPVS
Setting: RNA with constant flanks, vertebrate orthologous sites, ends assumed
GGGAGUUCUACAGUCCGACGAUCAUCCCUCAGUGACAGUAUGCCGUCUGUAGCUGAUUCCCAUUCAAGUCAUUUCUCUGAAUUUAGUUGUUCUGACCUAGAAAGCAUGAAAACUUCUUGUAGUCAUGGUUCCAGUGAUUAUCACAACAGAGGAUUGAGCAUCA: 0.498 ratio
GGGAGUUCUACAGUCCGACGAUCACAGUAUGGGUUACUCUCAUUUCUGUAGCAGAUAGAACAUUUUGCAAAAUAUGUAUACACCUAGCUAAGCUGAAUAUAAUAUAUUUUUAUUAGACUGUAAAUAAACAUACUCUUCUGCAUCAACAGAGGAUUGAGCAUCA: 0.414 ratio
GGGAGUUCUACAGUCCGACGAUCUUGCUUUCAGGUUGUGGCUAAUUGCCCUCAUUCCCUGCCUCCACUUUAAGUUUUUUCCUUUGCACCCUCCAUAUCCCCUCUCUCAACUCAGAUAGGUGUGGAGUAUUUUACUCAGUCAUUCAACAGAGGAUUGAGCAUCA: 0.629 ratio
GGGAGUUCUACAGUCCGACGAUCAGAAAGAAUAGGUUUUAAGUCUUAUGAACACAUAACUCUAGAGAAGUUUACAGCAAAGCCUAGUUUACAGGGGUAUCUUGUGCUGCAGUACUUUUAUAAAGUGUUUUUCAGAAUCAUGAACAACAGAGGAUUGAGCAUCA: 0.554 ratio
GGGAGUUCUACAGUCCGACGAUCCAUGAGCAUCUGUGUUAACUCCAAAGGCUUUGACACUUUGGCUCAUUAUACAUUUAAUCAUUCUUCCACGCCAGUUUCCUAAAAAUAGCAGUGUAGAUUCAGAGGGAUACCAAUGCUCCCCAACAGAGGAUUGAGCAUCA: 0.877 ratio
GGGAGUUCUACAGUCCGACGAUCCCUGUAUGUAGAAAACAAUUCUCACUGAAGCCAUUGUCAAGUUUUUCCCCCUAGACCUGGACUGGAGAUGUUUAAUUUUAUACACGCUUGCUGUGUUGGUCAUCGGUAGCCGGAGUUCAACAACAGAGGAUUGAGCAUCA: 0.251 ratio
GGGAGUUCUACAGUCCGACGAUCUUGGGGUGUACCUGUGGGUGCUGCUGGCCACGUAGCGUUGUUUGAUCUAGGACCUUGACAUAAUAGAUAGGCUUGUGGUUUUUUAAUUUAAAGAUAUUAAGACUUAAUUCACUAAAAUUUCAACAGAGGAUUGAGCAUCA: 0.726 ratio
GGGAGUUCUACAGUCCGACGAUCCUGUUGUCAAGCACUGUGUUCCAGACCGUGUCUGACUGUAGUGUAACCUAGGAGACUUUAUAGUUUUGUUUUAUUGAAACCCGCGUGCCGCAGAGCCCGGGAGGGCAGUGUCUCCGUGUGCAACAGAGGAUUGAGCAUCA: 1.24 ratio

Sample 2 — method: RNA Bind-n-Seq; molecule type: RNA; matrix: in vitro; tested at: 1 µM; setting: whole 134-nt RNA, ends assumed; with: 150 mM KCl; reference: input library; reading: higher = stronger binding; measurement: log2 enrichment
Target: Ras GTPase-activating protein-binding protein 1, C-terminal RGG region (G3BP1, Homo sapiens, UniProt Q13283)
Chain of UniProt Q13283 (whole entry, looked up): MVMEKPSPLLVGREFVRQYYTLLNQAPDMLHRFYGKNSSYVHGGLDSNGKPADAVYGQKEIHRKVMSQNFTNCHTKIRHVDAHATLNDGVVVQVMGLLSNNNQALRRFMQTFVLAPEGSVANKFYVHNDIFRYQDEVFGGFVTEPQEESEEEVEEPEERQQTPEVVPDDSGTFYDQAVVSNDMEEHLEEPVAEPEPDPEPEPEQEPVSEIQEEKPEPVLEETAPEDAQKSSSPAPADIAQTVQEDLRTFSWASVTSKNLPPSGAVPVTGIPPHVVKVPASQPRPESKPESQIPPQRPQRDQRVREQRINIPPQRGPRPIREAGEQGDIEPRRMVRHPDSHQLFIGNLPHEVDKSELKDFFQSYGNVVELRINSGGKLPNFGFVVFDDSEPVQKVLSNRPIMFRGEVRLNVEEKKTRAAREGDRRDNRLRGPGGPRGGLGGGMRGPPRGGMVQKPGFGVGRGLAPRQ
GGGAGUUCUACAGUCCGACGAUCUAACUUUAGAGGAGGAUCUGAUGGAUAUGGCAGUGGACGUGGAUUUGGGGAUGGCUAUAAUGGGUAUGGAGGAGGACCUGGAGGUGACAAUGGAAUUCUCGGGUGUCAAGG: -0.601
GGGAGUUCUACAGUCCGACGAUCCAAGUCCUGUGCUACACAUCGUAUGUACCGAAUCGGAAAAAGGAAAAAAAGGAGGAAAGUAUUAUGUUACGCCGUUCGGAUCUGCACUUCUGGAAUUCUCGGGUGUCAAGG: -1.83
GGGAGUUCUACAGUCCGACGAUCUCCUGUGCUACACAUCGUAUGUACCGAAUCGGGGAGGGGAAAAAAAGGGGUUUUUGGGGAAAGUAUUAUGUUACGCCGUUCGGAUCUGCAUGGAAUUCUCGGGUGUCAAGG: 1.83
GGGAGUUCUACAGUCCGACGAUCAAGUCCUGUGCUACACAUCGUAUGUACCGAAUCGGGAAAAGGAAAAGGGGAAAAGGGAAAGUAUUAUGUUACGCCGUUCGGAUCUGCACUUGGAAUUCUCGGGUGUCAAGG: -1.18
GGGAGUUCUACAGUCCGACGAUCUGGCCCUGGUGGCAUGCGGGGAGGAAGAGGUGGCCUCAUGGAUCGUGGUGGUCCCGGUGGAAUGUUCAGAGGUGGCCGUGGCGGAGACAGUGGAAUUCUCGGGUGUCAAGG: 3.17
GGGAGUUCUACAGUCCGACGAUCCCUGUGCUACACAUCGUAUGUACCGAAUCGGCCCCCCCGGCCCCCCCGGGGCCCCCCCGGGAAAGUAUUAUGUUACGCCGUUCGGAUCUGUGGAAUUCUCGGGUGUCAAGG: -1.22
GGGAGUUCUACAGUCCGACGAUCAAGUCCUGUGCUACACAUCGUAUGUACCGAAUCGGAAAGGAAAAAGGUUUUUUUGGAAAGUAUUAUGUUACGCCGUUCGGAUCUGCACUUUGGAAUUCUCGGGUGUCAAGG: -2.12
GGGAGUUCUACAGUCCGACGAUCGCAGGAAGUAAAAACAAAUGGAAAUGCUUGGGAUAGUGGCAGGGGUGGGGGUUGCUAAGGAAAGGGUGGGAUGGGAGUGGGUAAAGAGUUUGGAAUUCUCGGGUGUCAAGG: 1.83
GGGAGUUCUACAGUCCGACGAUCUGUCCCUGACUCUCCAUUUCCCCAUCUGAGUGGAUUUGGACCUAAUAGGGCACUGGAGCUGGUUCGAAUCCUGACUGGACUACUUGGCAAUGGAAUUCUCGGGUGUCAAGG: 0.0244

Sample 3 — target: CCNB3, cyclin fold, Cln2 fusion (human); method: yeast growth competition, sequencing; matrix: yeast; setting: weak parent motif; reference: not given; reading: higher = stronger binding; measurement: normalised enrichment score
Parent: CDC25A docking peptide (human); PPHRRRLLFACSP
PPHTRRLLFACSP [R4T]: 0.434
PSHRRRLLFACSP [P2S]: 0.0989
PPHRRRILFACSP [L7I]: 0.396
PPHRRRLVFACSP [L8V]: 0.179
PPHIRRLLFACSP [R4I]: 0.777
PWHRRRLLFACSP [P2W]: 0.158
PDHRRRLLFACSP [P2D]: 0.025
PPHRRRLLFACSN [P13N]: 0.514
PPHRRILLFACSP [R6I]: 0.113
PPHMRRLLFACSP [R4M]: 0.0532
PPHRRRLLFACSV [P13V]: 0.131
PPHRKRLLLACSP [R5K F9L]: 0.241
PPHRWRLLFACSP [R5W]: 0.285
PPHRRRLLFAISP [C11I]: 0.317
PPHRRRLLFAPSP [C11P]: 0.318
PPHRRRLLFICSP [A10I]: -0.375

Further values, each from its own experiment
PhoQ, residues 284 288 289 292 302 303 GANMMA — fold induction (PhoP, residues 12 14 15 18 19 NHTVL (Escherichia coli, UniProt P23836); Sort-seq, refers to: YFP reporter; E. coli; PhoQ-PhoP variant library, with: 10 µM Mg2+; reference: high Mg2+ state, higher = stronger signaling): 4.02

Some of these lines once more (sample 2):
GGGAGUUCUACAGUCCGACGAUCUAACUUUAGAGGAGGAUCUGAUGGAUAUGGCAGUGGACGUGGAUUUGGGGAUGGCUAUAAUGGGUAUGGAGGAGGACCUGGAGGUGACAAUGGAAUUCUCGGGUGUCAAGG: -0.601
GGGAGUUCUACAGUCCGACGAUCAAGUCCUGUGCUACACAUCGUAUGUACCGAAUCGGGAAAAGGAAAAGGGGAAAAGGGAAAGUAUUAUGUUACGCCGUUCGGAUCUGCACUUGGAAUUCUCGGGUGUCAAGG: -1.18
